Measurements from different studies.
Every numbered part comes from another study and shows a few of its results, in no order. Values joined by “and” are separate records of one study, mostly repeats; a detail may differ. Substitutions count along the parent as printed.
Sequence of UniProt P17106 (whole entry, looked up): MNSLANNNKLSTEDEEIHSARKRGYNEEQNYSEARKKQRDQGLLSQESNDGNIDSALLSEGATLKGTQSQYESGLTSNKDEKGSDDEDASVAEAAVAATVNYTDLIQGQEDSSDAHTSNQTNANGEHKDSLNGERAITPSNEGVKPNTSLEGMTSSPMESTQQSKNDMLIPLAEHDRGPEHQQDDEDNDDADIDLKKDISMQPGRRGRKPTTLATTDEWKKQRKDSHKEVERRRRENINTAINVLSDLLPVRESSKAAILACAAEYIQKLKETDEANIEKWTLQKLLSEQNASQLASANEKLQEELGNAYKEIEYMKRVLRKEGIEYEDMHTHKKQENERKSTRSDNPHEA

Block 1 — target: tungstate, free oxyanion; technique: microfluidic competitive inhibition; sample: in vitro, cell-free expressed; tested at: not given; direction: lower = stronger binding; quantity: oxyanion analog dissociation constant
Notes: derived from inhibition constants, unchanged parent 2230 nM
Parent: PafA, mature enzyme, eGFP fusion (Elizabethkingia meningoseptica, UniProt Q9KJX5); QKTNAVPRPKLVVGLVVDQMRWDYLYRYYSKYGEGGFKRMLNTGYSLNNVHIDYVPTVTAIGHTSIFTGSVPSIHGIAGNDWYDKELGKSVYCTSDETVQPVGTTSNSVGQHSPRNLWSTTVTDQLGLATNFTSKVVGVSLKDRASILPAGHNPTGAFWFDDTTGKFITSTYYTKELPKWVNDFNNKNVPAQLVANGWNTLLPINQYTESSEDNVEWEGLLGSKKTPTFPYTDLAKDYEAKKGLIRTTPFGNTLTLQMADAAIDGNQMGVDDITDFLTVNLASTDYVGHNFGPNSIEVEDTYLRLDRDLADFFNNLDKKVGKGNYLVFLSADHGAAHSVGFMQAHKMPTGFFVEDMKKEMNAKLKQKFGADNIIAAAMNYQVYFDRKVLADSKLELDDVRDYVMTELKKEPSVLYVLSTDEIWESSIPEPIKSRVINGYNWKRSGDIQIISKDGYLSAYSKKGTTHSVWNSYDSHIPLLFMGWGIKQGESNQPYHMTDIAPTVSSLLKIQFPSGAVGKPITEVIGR
I499V: 2.43 µM
D473G: 1.04 µM
G445A: 1.19 µM
N437G: 2.07 µM
P501G: 2.02 µM
H289V: 29.2 µM
P154G: 878 nM
L326V: 2.31 µM

Block 2 — Substance: meglumine antimoniate; organism: Leishmania infantum chagasi; technique: qPCR; host: golden hamster chronic infection; route: intraperitoneal; dose: 50 mg/kg/day; time: 10 days; relative to: microglobulin; quantity: delta Ct
item: IL17 mRNA; liver: 17.2 cycles and 16.4 cycles and 13.3 cycles and 14.7 cycles and 17 cycles and 15.5 cycles
item: IL4 mRNA; liver: 14 cycles and 15.6 cycles and 14.8 cycles and 15 cycles
item: TGF-β mRNA; liver: 4.06 cycles and 4.14 cycles and 4.43 cycles and 5.68 cycles and 5.04 cycles and 4.15 cycles
item: IL4 mRNA; spleen: 10.5 cycles and 11 cycles and 10.3 cycles and 12.6 cycles and 9.39 cycles and 10.6 cycles
item: IFN-γ mRNA; liver: 14 cycles and 12.9 cycles and 9.68 cycles and 12.4 cycles and 14.2 cycles and 11.1 cycles
item: IFN-γ mRNA; spleen: 10.2 cycles and 11.5 cycles and 11.7 cycles and 11.9 cycles and 13.4 cycles and 10.9 cycles
item: IL10 mRNA; liver: 11.7 cycles and 12.7 cycles and 11.5 cycles and 12.4 cycles and 11.9 cycles and 12.8 cycles

Further values, each from its own experiment
Nc1nc2c(ncn2[C@@H]2O[C@H](CO)[C@@H](O)[C@H]2O)c(=S)[nH]1  CC50 (Vero E6; imaging; 4 (unit not given)): 12.7 µM
O=C([O-])CN(CCN(CC(=O)[O-])CC(=O)O)CC(=O)[O-].[Na+].[Na+].[Na+]  GFP signal (Vesicular stomatitis virus; pseudovirus infection; concentration not given, VSV-G control pseudotype): 115%
CTATAAAATGGTAATGGCACGTGATAGTAGTGGTTCGTCTTGATTCGCTTGACGCTGCTG  fluorescence intensity (Centromere-binding protein 1, full length, N-terminal tag (CBF1, Saccharomyces cerevisiae, UniProt P17106, residues 1-351); protein-binding microarray; double-stranded DNA, one strand shown, in vitro; 0.8 µM, whole 60-bp probe, no competitor; higher = stronger binding): 10500 a.u.
COc1cc(-c2cn(C3CCc4c(F)cccc4N(CC(F)(F)F)C3=O)nn2)ccc1-n1cnc(C)c1 (stereo not drawn)  inhibition (SLC6A4 (Homo sapiens, UniProt P31645); ligand displacement; 10 µM): 88.6%
O.O.O.O.O=C([O-])CC(O)(CC(=O)[O-])C(=O)[O-].[Li+].[Li+].[Li+]  GFP signal (Vesicular stomatitis virus; pseudovirus infection; concentration not given, VSV-G control pseudotype): 88%
CC(C)C[C@@H](C=O)NC(=O)[C@H](CC(C)C)NC(=O)[C@H](CC(C)C)NC(=O)OCc1ccccc1  CC50 (Vero E6; imaging; 4 (unit not given)): 3 µM

For quick reference, copied from above (block 1):
I499V: 2.43 µM
P154G: 878 nM
